Results of several laboratories.
A part holds a random share of what one study measured.

Set 1
Target: RNA binding protein fox-1 homolog 2, RRM domain, GST-SBP tag (RBFOX2, Homo sapiens, UniProt O43251-10, residues 100-194)
Technique: RNA Bind-n-Seq
Form: RNA
Matrix: in vitro
Concentration: 365 nM
Setting: natural RNA segment, single round, ends assumed
Reference: no-protein control
Direction: higher = stronger binding
Quantity: RBNS enrichment (R)
Shared flanks, not repeated: GGGAGUUCUACAGUCCGACGAUC … UGGAAUUCUCGGGUGCCAA
GUAGCAAGACCCCCUCCUCCCCUCUACCACCCCCCCCAAGGGUCCAGGGGUCCUACUCGCUUCCCCCCUGCUCAUACCUUGCCUAUGGAGACAUGAGAGGGCAGAAUCCU: 0.421
GCGUUGUCCACUUUGUGGGGCUUUGUAGGUAGACGGAGCCACACUACAGGCAGGGUAUGAGCAGAGGGAUGUAUGGAGUGUGGGUGACUCUGAGCCUCACUGCUGCUGCA: 3.83
UCUCUUCUUGCAUGUCCACAGUAAUGUAUUUGUGGUUUUUAUUUUGAACGCUUGCUUUUAGAGAGAAAACAAUAUAGCCCCCUACCCUUUUCCCAAUCCUUUGCCCUCAA: 4.38
UGCACUGAGCAGGAACAUUGAAGAGUUGGGUGGUCGCACUGGUGUUAGCUGAAGAUGGGAAAGACUCAAGCCAUUGGGGUAAAGAUAACCAGAUUGAUCCAAUUGGCCAU: 1.15
AAGCAGGGGCAGGUGAGCCACCAUGGACUGCAUAGCAAGCCAGCCUUGAAUAUAGUGAGUCCAGUCUCAAAAGAAAAAAAAAGGUAAGUGAGGCUGGAGAAAUGGCUUAG: 1.06

Set 2
Target: Sal-like protein 4, full length isoform A (SALL4, Homo sapiens, UniProt Q9UJQ4, residues 1-1053)
Sequence of UniProt Q9UJQ4 (whole entry, looked up): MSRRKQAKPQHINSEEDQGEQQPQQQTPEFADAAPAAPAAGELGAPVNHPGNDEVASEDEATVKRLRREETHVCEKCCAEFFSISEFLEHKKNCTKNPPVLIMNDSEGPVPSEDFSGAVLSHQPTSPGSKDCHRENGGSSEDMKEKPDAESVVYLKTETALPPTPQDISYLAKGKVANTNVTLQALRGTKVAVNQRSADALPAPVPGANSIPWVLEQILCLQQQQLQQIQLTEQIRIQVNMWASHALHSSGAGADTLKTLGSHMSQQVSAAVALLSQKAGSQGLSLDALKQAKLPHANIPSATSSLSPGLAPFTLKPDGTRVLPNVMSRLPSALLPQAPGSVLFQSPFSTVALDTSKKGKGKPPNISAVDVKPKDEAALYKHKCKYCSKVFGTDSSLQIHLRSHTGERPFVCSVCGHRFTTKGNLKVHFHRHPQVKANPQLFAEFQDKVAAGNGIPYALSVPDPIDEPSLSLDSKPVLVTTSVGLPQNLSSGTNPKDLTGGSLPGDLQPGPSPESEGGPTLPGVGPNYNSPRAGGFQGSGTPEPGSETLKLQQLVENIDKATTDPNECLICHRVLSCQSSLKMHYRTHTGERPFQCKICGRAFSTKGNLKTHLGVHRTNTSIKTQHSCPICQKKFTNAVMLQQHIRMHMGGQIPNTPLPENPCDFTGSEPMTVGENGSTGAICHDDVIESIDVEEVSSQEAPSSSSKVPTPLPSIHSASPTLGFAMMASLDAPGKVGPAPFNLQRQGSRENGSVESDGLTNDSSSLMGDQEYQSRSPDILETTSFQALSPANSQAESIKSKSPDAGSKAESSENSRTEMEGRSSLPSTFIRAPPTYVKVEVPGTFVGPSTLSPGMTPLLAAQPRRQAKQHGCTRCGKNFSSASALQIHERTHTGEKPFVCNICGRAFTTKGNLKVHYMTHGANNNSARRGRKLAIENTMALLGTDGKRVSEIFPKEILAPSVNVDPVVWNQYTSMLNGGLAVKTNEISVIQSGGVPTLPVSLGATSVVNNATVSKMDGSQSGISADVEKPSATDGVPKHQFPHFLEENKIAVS
Technique: universal PBM
Form: double-stranded DNA, one strand shown
Matrix: in vitro
Concentration: 600 nM
Setting: 8-mer, flanks averaged, mean of replicates
Direction: higher = stronger binding
Quantity: E-score
CGTTAGGC: -0.0502
AGGGACGC: -0.21
AAGCAAAT: 0.214
GCACAACA: 0.143

Set 3
Target: Histone acetyltransferase KAT6A, winged helix 2, GST fusion (KAT6A, Homo sapiens, UniProt Q92794, residues 85-181)
Technique: protein binding microarray
Form: double-stranded DNA, one strand shown
Matrix: in vitro
Concentration: not given
Setting: 8-mer, flanks averaged, mean of 2 arrays, mostly near background
Reference: not given
Direction: higher = stronger binding
Quantity: E-score
Target sequence (chain): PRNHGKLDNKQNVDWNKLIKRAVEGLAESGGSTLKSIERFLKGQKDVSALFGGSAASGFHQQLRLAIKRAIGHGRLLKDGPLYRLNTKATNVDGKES
CTTACCAA: -0.00646
GTTGATTA: 0.188
ACACTCTA: -0.0143
ATATACGG: -0.00208
CAACGAGC: 0.0214
AGATATCA: -0.0796

Mixed results
PhoQ, residues 284 288 289 292 302 303 AGHLVA
fold induction (PhoP, residues 12 14 15 18 19 TTLRV (Escherichia coli, UniProt P23836); Sort-seq, measured: YFP reporter; E. coli; PhoQ-PhoP variant library, with: 10 µM Mg2+; reference: high Mg2+ state, higher = stronger signaling): 0.63

Some of these lines once more (set 3):
ATATACGG: -0.00208
CAACGAGC: 0.0214
AGATATCA: -0.0796
